Published values gathered from unrelated publications.
Protocols differ between the studies behind these lines. ± gives the spread as reported.

Structure (SMILES)	test	test system	setting	how to read	endpoint	result
FC(F)(c1ccccc1)[P-](F)(F)(F)(F)F		dichloromethane/water	24 h, room temperature		logP	-0.23
CC[C@H](C)[C@H](NC(=O)[C@@H](N)CCCNC(=N)N)C(=O)N[C@H](C(=O)N1CCC[C@H]1C(=O)N[C@@H](C)C(N)=O)C(C)C		CD-1 mouse, female, plasma	intravenous, 20 mg/kg daily, day 14, infused over 1 min		Tmax	3 min
CN[C@@](C)(C[18F])C(=O)O		SCID mouse DU-145 xenograft, brain	60 min, post injection		tissue uptake	0.3 ± 0.1 %ID/g
O=c1[nH]c(Cc2ccccn2)nc2c1cnn2C1CCOCC1		healthy men, extensive metabolizers, plasma	oral, 350 mg single dose, tablet, geometric mean		half-life	2.71 h
[123I]c1cncc(OC[C@@H]2CCN2)c1	SPECT	human, cingulate gyrus	intravenous bolus plus infusion, 5.2 mCi	relative to: tissue over plasma	tissue/plasma ratio	23.4
CC(C)(O)c1ccccc1CC[C@@H](SCC1(CC(=O)O)CC1)c1cccc(/C=C/c2ccc3ccc(Cl)cc3n2)c1		human liver mitochondrial preparation	1 µM, 30 min, 0.5 mg/mL protein		percent metabolized	0%
Cc1cc2c(C(C)C)c(O)c(O)c(C=O)c2c(O)c1-c1c(C)cc2c(C(C)C)c(O)c(O)c(C=O)c2c1O	mitochondrial swelling	BALB/cByJ female mouse liver mitochondria	30 min, added: succinate + rotenone	relative to: CaCl2 maximal swelling	EC20	> 10 µM
CCN(CC)CCCC(C)Nc1ccnc2cc(Cl)ccc12 (centres unmarked)		male athymic BALB/c nude mice, xenograft, serum	intraperitoneal, 60 mg/kg every other day, 2 weeks, added: sulforaphane 5 mg/kg		creatinine	21.7 ± 3.97 µmol/L
CC(C)Nc1nc(Cl)nc(NC(C)C)n1	LC-MS/MS	herbicide solution	2 h, 4 °C, added: 365 nm UV exposure		remaining amount	5.93 ± 3.07%
COc1cccc2c1cc1c3c(cc4c(c32)OCO4)C(=O)N1	HPLC	rat (Sprague-Dawley, male), isolated perfused kidney, urine	aristolochic acid I dosed at 50		time of first detection in urine	10 min
COc1ccc(C[C@@H]2NC(=O)[C@H]([C@@H](C)O)NC(=O)[C@@H]3[C@@H]4CCN3C(=O)[C@@H]3Cc5cn(c6ccc(F)cc56)CCCCCCN(Cc5ccc(cc5)CCNC(=O)[C@]5(C)CCCN5C2=O)C(=O)CCC(=O)N[C@@H](C)C(=O)N[C@H](CNC(=O)CCCCC[N+](C)(C)C)C(=O)N[C@@H](Cc2cccc(c2)CNC(=O)CO4)C(=O)N3)cc1		fasted healthy men, plasma	oral, 300 mg single dose, 24 h, with 1800 mg Labrasol, median		plasma concentration	13.3 nM

A few entries again:
Structure (SMILES)	test	test system	setting	how to read	endpoint	result
[123I]c1cncc(OC[C@@H]2CCN2)c1	SPECT	human, cingulate gyrus	intravenous bolus plus infusion, 5.2 mCi	relative to: tissue over plasma	tissue/plasma ratio	23.4
